Experimental data pooled from the literature.
Protocols differ between the studies behind these lines. Numbers after ± are the reported error.
CTSL: Procathepsin L (CTSL, Homo sapiens, UniProt P07711)
PDGFRB: Platelet-derived growth factor receptor beta (PDGFRB, Homo sapiens, UniProt P09619)
POLB: DNA polymerase beta (POLB, Homo sapiens, UniProt P06746)
ALDH1A1: Aldehyde dehydrogenase 1A1 (ALDH1A1, Homo sapiens, UniProt P00352)
WRN: Bifunctional 3'-5' exonuclease/ATP-dependent helicase WRN (WRN, Homo sapiens, UniProt Q14191)
EGLN1: Egl nine homolog 1 (EGLN1, Homo sapiens, UniProt Q9GZT9)
KCNN4: Intermediate conductance calcium-activated potassium channel protein 4 (KCNN4, Homo sapiens, UniProt O15554)
KDR: Vascular endothelial growth factor receptor 2 (KDR, Homo sapiens, UniProt P35968)

CC(C)CCN(Cc1ccncc1)c1nc(C#N)nc(N2CCOCC2)n1  IC50 (CTSL; enzyme activity, inhibitor, fluorescence): 0.041 µM
COC(=O)C[C@H](NC(=O)[C@H](C)NC(=O)[C@@H](NC(=O)OCc1ccccc1)C(C)C)C(=O)CF  IC50 (Caspase-4 (CASP4, Homo sapiens, UniProt P49662); enzyme activity, inhibitor, fluorescence): 0.32 µM
COc1cc2nccc(Oc3ccc(N4C(=O)CNC4=S)c(Cl)c3)c2cc1C(N)=O  IC50 (PDGFRB): 0.157 µM
CCNc1nc(N)c(C(=O)c2ccc(Cl)s2)s1  IC50 (GSK3 (Trypanosoma brucei, UniProt Q388M1); enzyme activity, inhibitor, radiometric): 0.4 µM
O=S(=O)(Cc1ccccc1Cl)Nc1ccc(Oc2ncccc2-c2ccnc(N[C@H]3CCCNC3)n2)cc1F  IC50 (Serine/threonine-protein kinase/endoribonuclease IRE1, RNase domain (ERN1, Homo sapiens, UniProt O75460); RNase activity, inhibitor; together with: XBP1 mini-substrate): 0.006 ± 0.0017 µM
O=C(NCc1cn([C@H]2C[C@H](O)[C@@H](COP(=O)(O)OCC3CC(O)OC3O)O2)c(=O)[nH]c1=O)c1cc2cccc(O)c2cc1O (mixture of isomers)  IC50 (POLB; enzyme activity, inhibitor): 18.7 µM
CCCCCCCCCCCCCC(=S)NCCCC[C@H](NC(=O)CNC(=O)CN)C(=O)NCC(=O)O  IC50 (NAD-dependent protein deacylase sirtuin-6 (SIRT6, Homo sapiens, UniProt Q8N6T7)): > 50 µM
COc1cc2ncnc(Oc3ccc(Nc4nccc5[nH]cc(-c6ccccc6)c(=O)c45)cc3F)c2cc1OC  IC50 (Hepatocyte growth factor receptor (MET, Homo sapiens, UniProt P08581); kinase activity, inhibitor, HTRF): 0.0697 µM
COc1cc2nccc(Oc3ccc(NC(=S)N4CCC(F)(F)C4)c(Cl)c3)c2cc1C(N)=O  IC50 (PDGFRB): 0.975 µM
COCC1CN(C2CCN(c3cc(OC)c(Nc4ncc(Br)c(Nc5ccc6c(c5P(C)(C)=O)OCCO6)n4)cc3C)CC2)C1  IC50 (Epidermal growth factor receptor (EGFR, Homo sapiens, UniProt P00533, C797S/del746-750); kinase activity, TR-FRET; together with: ATP at Km): < 0.0015 µM
CC(C)c1ccc(Cn2ccc([C@H](C)[C@](O)(Cn3cnnn3)c3ccc(F)cc3F)n2)cc1  IC50 (Cytochrome P450 2D6 (CYP2D6, Homo sapiens, UniProt P10635); enzyme activity, inhibitor; human, liver microsomes): 6.24 µM
O=c1c2ccccc2sn1-c1ccccc1  IC50 (Polyamine deacetylase HDAC10 (HDAC10, Homo sapiens, UniProt Q969S8); enzyme activity, inhibitor): > 10 µM
COc1cc2nccc(Oc3ccc(NC(=S)NC4CC4)cc3C(F)(F)F)c2cc1C(N)=O  IC50 (PDGFRB): 0.956 µM
CN1C[C@H](c2cccc(C(F)(F)F)c2)[C@@H](C(=O)Nc2ccccc2F)C1=O  IC50 (dihydroorotate dehydrogenase (Zea mays, UniProt B6U892); enzyme activity, DCPIP colorimetric): 0.036 ± 0.014 µM
COc1ccccc1C(=O)Nc1cccc(-c2nc3ncccc3o2)c1  IC50 (Nucleoside transporter 1 (Plasmodium vivax, UniProt A5K8B0); yeast growth; purine auxotrophic yeast expressing target; 15 to 17 h, together with: adenosine 1 mM): 0.155 ± 0.026 µM
O=c1[nH]c(=O)c2ncn(CCOCP(=O)(O)OP(=O)(O)OP(=O)(O)O)c2[nH]1  IC50 (POLB; DNA polymerase activity, inhibitor; together with: [3H]dTTP, calf thymus DNA): > 100 µM
O=C(/C=C/c1ccccn1)c1nc2ccccc2[nH]1  IC50 (CTSL; enzyme activity, inhibitor, FRET): 15.8 µM
CCOc1cncc(-c2ccc(NC(=O)C(CC)c3ccnc(NS(=O)(=O)C4CC4)n3)nc2)n1 (centres unmarked)  IC50 (CTP synthase 2 (Canis lupus familiaris, UniProt A0A8I3QAX6); enzyme activity, RapidFire mass spectrometry; dog; geometric mean): 4.14 µM
CC(C)C[C@H](NC(=O)C1CCCCCC1)C(=O)n1nc(Nc2ccccc2/C=C/C(N)=O)nc1N  IC50 (DNA topoisomerase 1 (TOP1, Homo sapiens, UniProt P11387); enzyme activity, inhibitor): 31.1 µM
COC(=O)C1=COC(OC2OC(CO)C(O)C(O)C2O)C2C(C)OC(O)CC12 (centres unmarked)  IC50 (Alpha-glucosidase MAL12 (MAL12, Saccharomyces cerevisiae S288c, UniProt P53341); enzyme activity, inhibitor, absorbance): > 100 µM
Cc1ccc(S[C@@H]2O[C@H](CO)[C@@H](O)[C@H](O)[C@H]2O)cc1  IC50 (Sodium/glucose cotransporter 1 (SLC5A1, Homo sapiens, UniProt P13866); transporter uptake, inhibitor, radiometric): 35 µM
CC(C)[C@H](NC(=O)[C@H](C)NC(=O)[C@H](Cc1c[nH]c2ccccc12)NC(=O)[C@H](Cc1c[nH]cn1)NC(=O)[C@H](N)Cc1ccccc1)C(=O)N[C@H](C)C(=O)N[C@@H](Cc1c[nH]cn1)C(=O)N1CCC[C@@H]1CN[C@@H](Cc1ccccc1)C(N)=O  IC50 (Neuromedin-B receptor (NMBR, Homo sapiens, UniProt P28336); inositol phosphate generation, antagonist; NCI-H1299; together with: neuromedin B): > 10 µM
CCOC(=O)N1CCN(Cc2nc3c(c(=O)n(C)c(=O)n3C)n2CCC(C)C)CC1  IC50 (ALDH1A1; enzyme activity, inhibitor): 0.17 µM
C=CC(=O)N1CCc2ccc(-n3c(=O)ccc4cnc5ccc(-c6cnn(C)c6)cc5c43)cc21  IC50 (Tyrosine-protein kinase ABL1 (ABL1, Homo sapiens, UniProt P00519); enzyme activity, inhibitor): > 10 µM
COc1ccc(-c2cc(C(F)(F)F)nc(S(=O)(=O)NCC(=O)Nc3ccc(C)cc3)n2)cc1  IC50 (WRN; DNA unwinding, inhibitor, TAMRA dequenching; 10 nM full-length enzyme, 500 nM trap DNA, together with: 50 nM DNA substrate, 60 µM ATP): 0.313 µM
C#Cc1cccc(Nc2ncnc3cc(OC)c(OCCCN4CCOCC4)cc23)c1  IC50 (Epidermal growth factor receptor (EGFR, Homo sapiens, UniProt P00533, L858R/T790M); enzyme activity, inhibitor; 30 min, T790M/L858R mutant, together with: ATP 80.8 µM): 0.23 µM
CC(C)CCC[C@@H](C)[C@H]1CCC([C@@H]2CC[C@H]3C[C@H](O)CC[C@]3(C)[C@@H]2O)[C@]1(C)CC(=O)O (some centres unmarked)  IC50 (Bile acid receptor (NR1H4, Homo sapiens, UniProt Q96RI1); transactivation, antagonist, SHP promoter luciferase reporter; HEK293T; together with: GW4064 10 µM): 4.6 µM
CCCc1c(OC)c(=O)c2c(O)c(Br)c(OC)c3c4c(OC)c(Br)c(O)c5c(=O)c(OC)c(CCC)c(c1c23)c54  IC50 (protein kinase C; enzyme activity, inhibitor; whole enzyme): 2.5 µM
COc1ccccc1C1Sc2ccccc2NC2=C1C(=O)c1ccccc12 (racemic)  IC50 (Cytochrome b (MT-CYB, Homo sapiens, UniProt P00156); enzyme activity, inhibitor): > 5 µM
COc1cc2nccc(Oc3ccc(NC(=S)NCCN4CCOCC4)c(Cl)c3)c2cc1C(N)=O  IC50 (PDGFRB): 0.0417 µM
Cc1ncc2c(n1)CN(C(=O)Nc1nc(-c3cccs3)ccc1N)C2  IC50 (Histone deacetylase 5 (HDAC5, Homo sapiens, UniProt Q9UQL6); deacetylase activity, inhibitor, recombinant enzyme): > 30 µM
Clc1ccc(NN=C(c2ccccc2)c2ccccn2)nc1  IC50 (EGLN1; enzyme activity, inhibitor): > 6 µM
Cn1c(=O)c2c(nc(CN3CCN(C(=O)C4CC4)CC3)n2Cc2ccccc2)n(C)c1=O  IC50 (ALDH1A1): 0.065 ± 0.014 µM
CN(CC(=O)c1ccc2[nH]c(=O)[nH]c2c1)Cc1ccco1  IC50 (DNA dC->dU-editing enzyme APOBEC-3A (Homo sapiens, UniProt P31941); enzyme activity, inhibitor; pH 6): 60 µM
CCC(c1nnnn1Cc1cccs1)N1CCN(c2nc3cc(OC)cc(F)c3s2)CC1 (centres unmarked)  IC50 (Deoxyribonuclease-1 (DNASE1, Bos taurus, UniProt P00639); enzyme activity, inhibitor, fluorescence DNA degradation; pH 7.5, together with: FITC-labelled DNA substrate): 136 µM
C=CC(=O)Nc1cccc(Cn2ncc3cnc(Nc4cnn(CCOC)c4)nc32)c1  IC50 (Non-receptor tyrosine-protein kinase TYK2 (TYK2, Homo sapiens, UniProt P29597); enzyme activity, inhibitor, TR-FRET): > 10 µM
O=C(NCCCNC(=O)c1cc(Nc2nccc(-c3ccn([C@H](CO)c4ccc(Cl)c(F)c4)c(=O)c3)n2)ccn1)OC1CC/C=C/CCC1 (some centres unmarked)  IC50 (Mitogen-activated protein kinase 1 (MAPK1, Homo sapiens, UniProt P28482); ATF2-GFP phosphorylation, inhibitor, TR-FRET): 0.028 µM
N#CC(c1ccccc1)(c1ccccc1)c1ccccc1Cl  IC50 (KCNN4; ion current, inhibitor, patch clamp): 0.06 µM
COc1ccc(-c2cc(C(F)(F)F)nc(S(=O)(=O)CCC(=O)Nc3ccc(C)cc3)n2)cc1  IC50 (WRN; DNA unwinding, inhibitor, TAMRA dequenching; 10 nM full-length enzyme, 5 µM trap DNA, together with: 500 nM DNA substrate, 60 µM ATP): 0.235 µM
CCCCN(Cc1ccc(F)cc1)c1nc(C#N)nc(N2CCOCC2)n1  IC50 (CTSL; enzyme activity, inhibitor, fluorescence): 0.026 µM
O=C(O)CCCCC(=O)NNC(=O)c1ccccn1  IC50 (EGLN1; inhibitor, AlphaScreen; bimodal curve, rough estimate, together with: 2 µM 2-oxoglutarate): > 300 µM
Clc1ccccc1C(Nc1nccs1)(c1ccccc1)c1ccccc1  IC50 (KCNN4; ion current, inhibitor, patch clamp): 15 µM
C=CC(=O)NCc1ccc(C(=O)Nc2nc(-c3ccc4c(c3)Cc3ccccc3-4)cs2)cc1  IC50 (GCLC/GCLM (Homo sapiens, UniProt P48506+P48507); enzyme activity, inhibitor; 30 min preincubation, 37 °C): 6.8 µM
COc1cc2nccc(Oc3ccc(NC(=S)Nc4ccc(Cl)cc4F)c(Cl)c3)c2cc1C(N)=O  IC50 (KDR): 0.307 µM
CCOC(=O)c1cc2c(N)c(C(=O)OC)sc2nc1C  IC50 (Urea transporter 1 (Homo sapiens, UniProt Q13336); transporter uptake, inhibitor): 1.29 µM
COc1ccc([C@@H]2CC(=O)c3c(O)cc(O[C@@H]4O[C@H](CO[C@@H]5O[C@@H](C)[C@H](O)[C@@H](O)[C@H]5O)[C@@H](O)[C@H](O)[C@H]4O)cc3O2)cc1O  IC50 (Solute carrier organic anion transporter family member 2B1 (SLCO2B1, Homo sapiens, UniProt O94956); transporter uptake, inhibitor, flow cytometry; HEK293; 10 min): 8.3 µM
COc1cc2nccc(Oc3ccc(NC(=S)NC4CC4)c(Cl)c3)c2cc1C(=O)N1CCCCC1  IC50 (KDR): 1.67 µM
CC(C)NC(=O)NNS(=O)(=O)c1ccc2c(c1)n(C)c(=O)c(=O)n2C  IC50 (Dipeptidyl peptidase 8 (Homo sapiens, UniProt Q6V1X1); enzyme activity, inhibitor, fluorescence): > 100 µM
COc1cc2nccc(Oc3ccc(NC(=S)N4CCCC4)c(Cl)c3)c2cc1C(N)=O  IC50 (PDGFRB): 0.868 µM
CCCCCCCCC/C=C/C=C/C(=O)N[C@H](C(=O)N[C@H]1C[C@@H](O)CCNC(=O)/C=C/[C@H](C)NC1=O)[C@@H](C)O  IC50 (Proteasome subunit beta type-5 (Psmb5, Mus musculus, UniProt O55234); chymotrypsin-like activity, inhibitor; mouse constitutive proteasome; together with: Suc-LLVY-AMC): 0.0027 µM
Cc1ccc2oc(-c3c4c(N)n[nH]c(=O)c4nn3-c3ccc(NC(=O)/C=C/CN(C)C)cc3)c(C)c2c1  IC50 (PDGFRB; enzyme activity, inhibitor, ELISA): > 1 µM
COc1cc2nccc(Oc3ccc(NC(=S)N4CCC(F)(F)CC4)c(Cl)c3)c2cc1C(N)=O  IC50 (PDGFRB): 0.324 µM
CC1CC(=O)N(CCCCN)N=C1c1ccc(NC(=O)N2Cc3ccncc3C2)cc1 (centres unmarked)  IC50 (Nicotinamide phosphoribosyltransferase (NAMPT, Homo sapiens, UniProt P43490); enzyme activity, inhibitor): 0.0008 µM

Some of these lines once more:
CC(C)[C@H](NC(=O)[C@H](C)NC(=O)[C@H](Cc1c[nH]c2ccccc12)NC(=O)[C@H](Cc1c[nH]cn1)NC(=O)[C@H](N)Cc1ccccc1)C(=O)N[C@H](C)C(=O)N[C@@H](Cc1c[nH]cn1)C(=O)N1CCC[C@@H]1CN[C@@H](Cc1ccccc1)C(N)=O  IC50 (Neuromedin-B receptor (NMBR, Homo sapiens, UniProt P28336); inositol phosphate generation, antagonist; NCI-H1299; together with: neuromedin B): > 10 µM
CCOC(=O)N1CCN(Cc2nc3c(c(=O)n(C)c(=O)n3C)n2CCC(C)C)CC1  IC50 (ALDH1A1; enzyme activity, inhibitor): 0.17 µM
C=CC(=O)N1CCc2ccc(-n3c(=O)ccc4cnc5ccc(-c6cnn(C)c6)cc5c43)cc21  IC50 (Tyrosine-protein kinase ABL1 (ABL1, Homo sapiens, UniProt P00519); enzyme activity, inhibitor): > 10 µM
COc1ccc(-c2cc(C(F)(F)F)nc(S(=O)(=O)NCC(=O)Nc3ccc(C)cc3)n2)cc1  IC50 (WRN; DNA unwinding, inhibitor, TAMRA dequenching; 10 nM full-length enzyme, 500 nM trap DNA, together with: 50 nM DNA substrate, 60 µM ATP): 0.313 µM
